Published values collected from several papers.
Compare with care: the assays were run in different laboratories. Several values in a cell are separate wells, animals, samples, runs or records. ± marks the error that the study gave.
UniProt P36896, sequence (whole entry, looked up): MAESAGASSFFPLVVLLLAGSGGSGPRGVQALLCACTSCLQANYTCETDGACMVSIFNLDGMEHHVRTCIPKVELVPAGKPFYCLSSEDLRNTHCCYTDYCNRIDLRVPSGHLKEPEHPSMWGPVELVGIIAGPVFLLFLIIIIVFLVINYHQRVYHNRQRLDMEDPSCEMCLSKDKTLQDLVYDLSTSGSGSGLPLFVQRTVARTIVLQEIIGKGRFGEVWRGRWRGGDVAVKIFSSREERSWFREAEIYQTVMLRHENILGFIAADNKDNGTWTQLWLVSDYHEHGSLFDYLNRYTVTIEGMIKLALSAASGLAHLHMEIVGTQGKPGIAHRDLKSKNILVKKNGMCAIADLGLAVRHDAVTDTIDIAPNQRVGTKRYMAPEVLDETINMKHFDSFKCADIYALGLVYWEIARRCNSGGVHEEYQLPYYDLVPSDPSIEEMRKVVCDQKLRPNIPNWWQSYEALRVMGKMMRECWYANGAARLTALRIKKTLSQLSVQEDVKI
UniProt P42685, sequence (whole entry, looked up): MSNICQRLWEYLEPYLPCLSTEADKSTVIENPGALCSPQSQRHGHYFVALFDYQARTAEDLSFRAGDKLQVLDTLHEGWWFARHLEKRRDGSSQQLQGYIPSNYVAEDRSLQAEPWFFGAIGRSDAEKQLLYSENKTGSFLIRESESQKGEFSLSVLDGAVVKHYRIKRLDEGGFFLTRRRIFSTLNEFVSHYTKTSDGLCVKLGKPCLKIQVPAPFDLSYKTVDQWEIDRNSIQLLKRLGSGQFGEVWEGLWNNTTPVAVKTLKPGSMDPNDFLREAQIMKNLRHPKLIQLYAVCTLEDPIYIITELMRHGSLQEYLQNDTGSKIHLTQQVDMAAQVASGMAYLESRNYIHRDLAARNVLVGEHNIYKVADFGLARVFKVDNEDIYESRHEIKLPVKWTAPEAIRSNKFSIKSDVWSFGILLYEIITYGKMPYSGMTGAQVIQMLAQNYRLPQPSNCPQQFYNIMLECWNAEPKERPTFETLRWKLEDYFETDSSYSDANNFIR

For `CC[C@H](C)[C@H](NC(=O)[C@@H](NC(=O)[C@H](CCCNC(=N)N)NC(=O)[C@H](CCCNC(=N)N)NC(=O)[C@@H](NC(=O)[C@H](Cc1c[nH]c2ccccc12)NC(=O)[C@H](CCCNC(=N)N)NC(=O)[C@H](CCCNC(=N)N)NC(=O)[C@H](CC(C)C)NC(=O)[C@H](CCCNC(=N)N)NC(=O)[C@H](CCCNC(=N)N)NC(=O)[C@@H](N)C(C)C)[C@@H](C)CC)C(C)C)C(N)=O`, “minimum haemolytic concentration” read greater than 256 µM (sheep red blood cells; 10% haemolysis; 1 h, 37 °C).
With `CC[C@H](C)[C@H](NC(=O)[C@H](CCCNC(=N)N)NC(=O)CNC(=O)[C@H](CCCCN)NC(=O)[C@@H](NC(=O)CNC(=O)[C@H](Cc1c[nH]cn1)NC(=O)[C@@H](NC(=O)[C@H](CC(C)C)NC(=O)[C@H](CO)NC(=O)CNC(=O)[C@H](CC(C)C)NC(=O)CN)C(C)C)C(C)C)C(=O)N[C@@H](Cc1ccccc1)C(=O)N[C@@H](CC(N)=O)C(=O)N[C@@H](Cc1c[nH]cn1)C(=O)N[C@@H](CCCCN)C(=O)N[C@@H](CC(C)C)C(=O)NCC(=O)N[C@@H](CCSC)C(=O)N[C@@H](C)C(=O)N[C@@H](CO)C(=O)N[C@H](C(=O)N[C@H](C(=O)N[C@@H](CCCCN)C(=O)NCC(=O)N[C@H](C(=O)N[C@@H](CC(C)C)C(=O)N[C@@H](CCC(N)=O)C(=O)N[C@@H](CCCCN)C(=O)N[C@@H](CC(C)C)C(=O)N[C@@H](Cc1c[nH]c2ccccc12)C(=O)N[C@@H](CCC(=O)O)C(=O)O)C(C)C)[C@@H](C)CC)C(C)C` the IC50 was 22.6 µM (HUVEC; cytotoxicity, MTT; 24 h, 37 °C).
With `CCN(CCCCOc1ccc(CCC(=O)N2CCC(Cc3ccccc3)CC2)cc1OC)Cc1ccccc1` the Papp(A-B) was 8.27 ± 0.03 ×10⁻⁶ cm/s (Caco-2 monolayer; 40 µM, 120 min).
With `CC[C@H](C)[C@H](NC(=O)[C@H](Cc1c[nH]c2ccccc12)NC(=O)[C@H](CCCCN)NC(=O)[C@H](CC(C)C)NC(=O)[C@@H](NC(=O)[C@@H](NC(=O)CNC(=O)[C@H](CCCCN)NC(=O)[C@H](Cc1c[nH]cn1)NC(=O)[C@H](CCCCN)NC(=O)[C@H](Cc1c[nH]c2ccccc12)NC(=O)[C@H](C)NC(=O)[C@H](CC(C)C)NC(=O)[C@H](CO)NC(=O)[C@@H](NC(=O)[C@H](Cc1ccc(O)cc1)NC(=O)[C@H](CCCCN)NC(=O)[C@H](CCC(N)=O)NC(=O)CNC(=O)[C@H](CCCCN)NC(=O)[C@@H](NC(=O)[C@H](C)NC(=O)[C@H](CC(C)C)NC(=O)[C@H](Cc1ccccc1)NC(=O)[C@H](CCC(N)=O)NC(=O)[C@@H](NC(=O)[C@H](CC(C)C)NC(=O)[C@H](CCCCN)NC(=O)[C@H](CCSC)NC(=O)[C@H](Cc1ccccc1)NC(=O)[C@H](C)NC(=O)[C@H](C)NC(=O)[C@H](CCSC)NC=O)[C@@H](C)CC)[C@@H](C)O)C(C)C)[C@@H](C)O)[C@@H](C)CC)C(=O)N[C@@H](CC(N)=O)C(=O)N[C@@H](C)C(=O)NCC(=O)N[C@@H](CCC(N)=O)C(=O)N[C@@H](CO)C(=O)N[C@@H](Cc1ccccc1)C(=O)N[C@@H](CCC(=O)O)C(=O)N[C@@H](Cc1c[nH]c2ccccc12)C(=O)N[C@H](C(=O)N[C@@H](Cc1ccc(O)cc1)C(=O)N[C@@H](CCCCN)C(=O)N[C@@H](CCC(N)=O)C(=O)N[C@H](C(=O)N[C@@H](CCCCN)C(=O)N[C@@H](CCCCN)C(=O)N[C@@H](CC(C)C)C(=O)N[C@@H](Cc1c[nH]c2ccccc12)C(=O)N[C@@H](C)C(=O)O)[C@@H](C)CC)[C@@H](C)CC` the HD50 was 500 µg/mL (human erythrocytes; hemolysis; pH 7.2; baseline: water complete hemolysis).
The remaining activity of `O=C1NC(=O)c2c1c1cc(F)c[n+]3c1c1c2c2cc(O)ccc2[n]1[Ru-4]312([N]=C=S)[S+]3CC[S+]1CC[S+]2CC3` (stereo not drawn) is reported as 29% (FRK (Homo sapiens, UniProt P42685); enzyme activity; 100 nM, human enzyme, with: 10 µM ATP; baseline: untreated).
`COc1ccccc1-c1n[nH]c2nc(NC3CCN(C(=O)Cc4ccc(F)cc4F)CC3)ncc12` has a relative abundance of 0.87 (bead binding, competition bead pull-down, measured: LINJ.36.4380; Leishmania donovani axenic amastigote extract; 10 µM; baseline: vehicle).
`O=c1n(CCNCCOS(=O)(=O)c2ccccc2)c(=O)n(S(=O)(=O)c2ccccc2)c(=O)n1S(=O)(=O)c1ccccc1` gave an IC50 of 5.38 µg/mL (HUVEC; cell growth or viability, MTT; 48 h).
The CC50 of `COc1cc(/C=C/C(=O)Oc2ccc(C(F)(F)F)c(C(F)(F)F)c2)ccc1O` is reported as 14 µM (HaCaT; cell growth or viability, MTT; 24 h).
`CC(=O)c1c(O)c(C)c(O)c2c1OC1=CC(=O)C(=C(C)NCCNc3ccnc4cc(Cl)ccc34)C(=O)C12C` (stereo not drawn) gave an IC50 of 8.29 µM (L6 rat skeletal myoblasts; cytotoxicity, Alamar Blue).
`CS(C)(=O)=Nc1ccc(-c2ccc(-c3nc4cc(O[C@@H]5CO[C@H]6[C@@H]5OC[C@H]6O)[nH]c4cc3F)cc2)cc1` has an inhibition of 11% (ACVR1B (Homo sapiens, UniProt P36896); enzyme activity, inhibitor; 10 µM).
For `O=C1NC2(CC2)COc2ncc(F)cc2[C@H]2COCCN2c2ccn3ncc1c3n2`, the potassium was 4.66 ± 0.09 mmol/L (Sprague-Dawley rat, male, serum; oral, 2.5 mg/kg/day, 4 weeks daily, end of recovery period).
`CC[C@H](C)[C@H](NC(=O)[C@H](C)NC(=O)[C@H](CCCCN)NC(=O)[C@H](CC(C)C)NC(=O)[C@@H](N)Cc1ccccc1)C(=O)N[C@@H](CCCCN)C(=O)N[C@@H](CCCCN)C(=O)N[C@@H](Cc1ccccc1)C(=O)NCC(=O)N[C@@H](CCCCN)C(=O)N[C@@H](CCC(=O)O)C(=O)N[C@@H](Cc1ccccc1)C(=O)N[C@@H](CCCCN)C(=O)N[C@@H](CCCCN)C(=O)N[C@H](C(=O)NCC(=O)N[C@@H](C)C(=O)N[C@@H](CCCCN)C(=O)N[C@@H](CC(C)C)C(=O)N[C@@H](CCCCN)C(=O)O)[C@@H](C)CC` gave a viability of 92.4% (HeLa; cell growth or viability, MTT; 16 µg/mL).
For `CNC(=O)C[C@H](Cc1ccncc1)NC(=O)[C@@H](Cc1cccc(Br)c1)NC(=O)[C@@H](N)Cc1ccsc1`, the viability was 1.11 and 0.983 and 1.07 (Huh-7-ACE2; CellTiter-Glo; 0.781 µM, 48 h, unit not given; baseline: DMSO).
For `CC(=O)NCC(=O)N[C@@H](Cc1ccccc1)C(=O)N[C@@H](Cc1ccccc1)C(=O)N[C@@H](Cc1ccc(O)cc1)C(=O)NCC(=O)N[C@@H](Cc1ccc(O)cc1)C(=O)NCC(=O)N[C@@H](CO)C(=O)N[C@@H](CO)C(=O)N[C@@H](CO)C(=O)N[C@@H](CCCNC(=N)N)C(=O)N[C@@H](CCCNC(=N)N)C(=O)N[C@@H](C)C(=O)N1CCC[C@H]1C(=O)N[C@@H](CCC(N)=O)C(=O)N[C@H](C(=O)O)[C@@H](C)O`, cytotoxicity read “not toxic” (L929; CCK-8; 1 to 400 µM, 48 h).
With `CC(C)(C)C(=O)OCOP(=O)(OCOC(=O)C(C)(C)C)C1CCCN(O)C1=O` (stereo not drawn) the TGI was 8.53 µM (HT-29).

Repeated from above:
The remaining activity of `O=C1NC(=O)c2c1c1cc(F)c[n+]3c1c1c2c2cc(O)ccc2[n]1[Ru-4]312([N]=C=S)[S+]3CC[S+]1CC[S+]2CC3` (stereo not drawn) is reported as 29% (FRK (Homo sapiens, UniProt P42685); enzyme activity; 100 nM, human enzyme, with: 10 µM ATP; baseline: untreated).
`COc1ccccc1-c1n[nH]c2nc(NC3CCN(C(=O)Cc4ccc(F)cc4F)CC3)ncc12` has a relative abundance of 0.87 (bead binding, competition bead pull-down, measured: LINJ.36.4380; Leishmania donovani axenic amastigote extract; 10 µM; baseline: vehicle).
